Assay results of several laboratories.
Protocols differ between the studies behind these lines. Values joined by “and” are separate records of one study, mostly repeats; a detail may differ. ± gives the spread as reported.
Organism: Leishmania infantum

`CCOC1=CC(=O)c2cc3c(cc2C1=O)CCCC3(C)C` has an EC50 of 16.1 µM (parasite growth; 72 h, promastigote).
For `O=[N+]([O-])/C=C/c1ccc(Br)o1`, “minimal parasiticidal concentration” read 2.3 ± 0.5 µM (motility arrest; promastigotes; 72 h, 26 °C).
For `CCOC(=O)c1c(C#N)c(-c2c[nH]c3c(C)cccc23)n(NC(=O)OC(C)(C)C)c1C`, the selectivity ratio was 3.2 (MHOM/TN/80/IPT1 promastigotes; baseline: CC50 THP-1 over IC50 promastigotes).
For `COC(=O)C1C(C=NO)=Cc2cc3c(cc2C1c1cc(OC)c(OC)c(OC)c1)OCO3` (stereo not shown), the EC50 was 61.3 µM (parasite growth; promastigote).
For `CCOC(=O)c1c(C#N)c(-c2c[nH]c3ccc(C)cc23)n(NC(=O)OC(C)(C)C)c1C`, the inhibition was -4.1% (parasite growth; 20 µM, 72 h, promastigote).
`CC(C)=CCCC1=CCC2=C(C1)C(=O)c1ccccc1C2=O` gave a selectivity index of 3.2 (promastigotes; baseline: HepG2 CC50 over promastigote EC50).
`O=C(Nc1ccc2c(c1)CN(c1ccccc1)C2=O)N1CCN(c2ccc(F)cc2)CC1` has an IC50 of 45.2 µM (parasite growth, imaging; intracellular, amastigote).
`CCOC(=O)c1cn(CC(c2c[nH]c3cc(Br)ccc23)c2c[nH]c3cc(Br)ccc23)c(C)c1C(=O)OC` has a selectivity index of 18.8 (THP-1, MHOM/TN/80/IPT1; 72 h; baseline: CC50 over IC50).
With `Cc1ccc(N2Cc3cc(NC(=O)N4CCN(c5cccc(C(F)(F)F)c5)CC4)ccc3C2=O)cc1` the IC50 was over 64 µM (parasite growth, Giemsa stain; primary peritoneal mouse macrophages, MHOM/MA(BE)/67 amastigotes; 5 d).
The EC50 of `CC(C)=CCCC1=CCC2C(=O)c3ccccc3C(=O)C2C1` (stereo not shown) is reported as over 100 µM (intracellular amastigotes, ex vivo mouse splenic explants; 72 h).
The inhibition of `CCOC(=O)c1c(C#N)c(-c2c[nH]c3cccc(OCc4ccccc4)c23)n(NC(=O)OC(C)(C)C)c1C` is reported as 63% and > 40% (parasite growth; 20 µM, 72 h, promastigote).
`O=C(Nc1ccc2c(c1)CN(c1ccc(Cl)cc1)C2=O)N1CCN(c2ccc(F)cc2)CC1` gave an IC50 of over 64 µM (parasite growth, Giemsa stain; primary peritoneal mouse macrophages, MHOM/MA(BE)/67 amastigotes; 5 d).
`COc1ccc(S(=O)(=O)Nc2cc(C#N)ccc2OS(=O)(=O)c2ccc(OC)cc2)cc1` has an infected macrophages of 75% (U-937; 10 µM; baseline: untreated).
For `COC(=O)C1C(c2nc3ncccc3[nH]2)=Cc2cc3c(cc2C1c1cc(OC)c(OC)c(OC)c1)OCO3` (stereo not shown), the EC50 was 47 µM (parasite growth; promastigote).
The inhibition of `CCOC(=O)c1c(C#N)c(-c2cn(C)c3cccc(OCc4ccccc4)c23)n(NC(=O)OC(C)(C)C)c1C` is reported as 35.6% (parasite growth; 20 µM, 72 h, promastigote).
The EC50 of `N=C(N)Nc1nc2cc(C(F)(F)F)ccc2[nH]1` is reported as over 20 µM (parasite growth; 72 h, promastigote).
For `CCOC(=O)c1c(C#N)c(-c2c[nH]c3cc(F)ccc23)n(NC(=O)OC(C)(C)C)c1C`, the inhibition was -29.8% (parasite growth; 20 µM, 72 h, promastigote).
`COC(=O)C1C(c2nc3cc(OC)ccc3[nH]2)=Cc2cc3c(cc2C1c1cc(OC)c(OC)c(OC)c1)OCO3` (stereo not shown) gave an EC50 of 7.3 µM (parasite growth; mouse Splenocyte; 48 h, intracellular, amastigote).
For `COc1cc(OC(C)=O)c2cc3c(cc2c1OC(C)=O)CCCC3(C)C`, the EC50 was 19.3 ± 1.6 µM (intracellular amastigotes, ex vivo mouse splenic explants; 72 h).
For `COC(=O)C1C(C=NN=CC2=Cc3cc4c(cc3C(c3cc(OC)c(OC)c(OC)c3)C2C(=O)OC)OCO4)=Cc2cc3c(cc2C1c1cc(OC)c(OC)c(OC)c1)OCO3` (stereo not shown), the EC50 was over 100 µM (parasite growth; promastigote).
For `CC(=O)Oc1ccc(OC(C)=O)c2c1CC1=C(C2)C(C)(C)CCC1`, the selectivity index was 2.3 (promastigotes; baseline: HepG2 CC50 over promastigote EC50).
The EC50 of `COc1cc(C2c3cc4c(cc3C=C(C=O)C2C(=O)OCC=Cc2ccccc2)OCO4)cc(OC)c1OC` (stereo not shown) is reported as 9.3 µM (parasite growth; promastigote).
`CCOC(=O)c1c(C#N)c(-c2c[nH]c3cccc(C(=O)OC)c23)n(NC(=O)OC(C)(C)C)c1C` gave an inhibition of -13.9% (parasite growth; 20 µM, 72 h, promastigote).
For `O=[N+]([O-])/C(Br)=C/c1ccco1`, “minimal parasiticidal concentration” read 9.2 ± 0.3 µM (motility arrest; promastigotes; 72 h, 26 °C).
`COc1cc(C2c3cc4c(cc3C(C(C)C)C3COC(=O)C23)OCO4)cc(OC)c1OC` (stereo not shown) gave an EC50 of 23.2 µM (parasite growth; promastigote).
`CCOC(=O)c1c(C(=O)OC)cn(CC(c2cn(C)c3ccccc23)c2cn(C)c3ccccc23)c1C` gave a selectivity index of over 55 (THP-1, MHOM/TN/80/IPT1; 72 h; baseline: CC50 over IC50).
`COC1=CC(=O)c2cc3c(cc2C1=O)CCCC3(C)C` gave a selectivity index of 3.9 (promastigotes; baseline: HepG2 CC50 over promastigote EC50).
Under activity, `CCCCCc1cn(CCCCCCCCCCCOP(=O)([O-])OCC[N+](C)(C)C)nn1` is recorded as “inactive” (PI staining flow cytometry; promastigotes; concentration not given).
For `N=C(N)Nc1nc2cc(Cl)ccc2[nH]1`, the EC50 was over 20 µM (parasite growth; 72 h, promastigote).
For `COc1cc(COC(=O)C2C(C=O)=Cc3cc4c(cc3C2c2cc(OC)c(OC)c(OC)c2)OCO4)cc(OC)c1OC` (stereo not shown), the EC50 was 14.5 µM (parasite growth; promastigote).
With `NNc1nnc(NN)c2ccccc12` the inhibition was 9.45% (parasite growth, MTT; 25 µM, promastigote).

Some of these lines once more:
`CC(C)=CCCC1=CCC2=C(C1)C(=O)c1ccccc1C2=O` gave a selectivity index of 3.2 (promastigotes; baseline: HepG2 CC50 over promastigote EC50).
`CCOC(=O)c1cn(CC(c2c[nH]c3cc(Br)ccc23)c2c[nH]c3cc(Br)ccc23)c(C)c1C(=O)OC` has a selectivity index of 18.8 (THP-1, MHOM/TN/80/IPT1; 72 h; baseline: CC50 over IC50).
`O=C(Nc1ccc2c(c1)CN(c1ccc(Cl)cc1)C2=O)N1CCN(c2ccc(F)cc2)CC1` gave an IC50 of over 64 µM (parasite growth, Giemsa stain; primary peritoneal mouse macrophages, MHOM/MA(BE)/67 amastigotes; 5 d).
